# Measurements of several laboratories.
# A part holds a random share of what one study measured. Changes are numbered by the printed parent chain.

# Series 1 — method: competition protein-binding microarray; molecule type: double-stranded DNA, one strand shown; sample: in vitro; concentration: 2 µM; with: Cbf1 competitor, 0.05 µM; reading: higher = stronger binding
# Target: Phosphate system positive regulatory protein PHO4, full length, GST-tagged (PHO4, Saccharomyces cerevisiae, UniProt P07270, residues 1-312)
# Notes: whole 60-bp probe, lowest competitor level
# Construct (chain): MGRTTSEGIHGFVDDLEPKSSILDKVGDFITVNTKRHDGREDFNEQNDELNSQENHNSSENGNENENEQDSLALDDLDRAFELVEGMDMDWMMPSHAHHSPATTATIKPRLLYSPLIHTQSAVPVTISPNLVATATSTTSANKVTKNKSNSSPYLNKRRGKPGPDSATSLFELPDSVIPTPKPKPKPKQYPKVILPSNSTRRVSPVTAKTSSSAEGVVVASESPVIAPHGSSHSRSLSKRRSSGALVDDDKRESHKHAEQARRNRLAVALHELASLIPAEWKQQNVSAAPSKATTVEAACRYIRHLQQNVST
Sequence,fluorescence intensity
TTATACGTATTACATCATGTGCTCCAGCCTTGTCAGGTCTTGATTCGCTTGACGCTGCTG,9120 a.u.
CGTCCTAGTGATTGCCTGGTGGGTGCCATGAGGAAGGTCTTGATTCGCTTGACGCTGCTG,7390 a.u.
AAGAGCGTAAGCTTGCTCGTGGTGAGAAGGGAACTAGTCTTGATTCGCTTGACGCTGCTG,7690 a.u.
TTGGAACCCATACCTCACGTTTGAAATTGACACCCGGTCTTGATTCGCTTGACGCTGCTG,5960 a.u.
ATAGAAATGGGTAGCCTTGTGACGGTGGATAATTCTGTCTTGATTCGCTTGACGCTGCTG,3860 a.u.
TTAAATTCAAGTTACCTCGTGTTCCTAGTCATTGGCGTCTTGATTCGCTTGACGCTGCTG,10900 a.u.
AGAATGGGCGCTTGTCGCGTGCCAGATCGGGGTTCAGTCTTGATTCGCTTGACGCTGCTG,8200 a.u.
TCACTTTAACCACCATTTCTTTAAGCTAAAGTTTAGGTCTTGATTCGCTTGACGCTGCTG,3620 a.u.
TTGCGGACGGACCATCACGCAAGTTTTTTAACGCGAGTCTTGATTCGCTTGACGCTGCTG,3600 a.u.
TTCGGGTATCTTGTTTATGTGACGCTCTGACCCAGAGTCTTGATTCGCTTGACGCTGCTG,3040 a.u.

# Series 2 — method: Sort-seq; refers to: YFP reporter; sample: E. coli; notes: PhoQ-PhoP variant library; with: 10 µM Mg2+; reference: high Mg2+ state; reading: higher = stronger signaling
# Substance: PhoQ, residues 284 288 289 292 302 303 SLKLQV
target,fold induction
"PhoP, residues 12 14 15 18 19 VHTVL (Escherichia coli, UniProt P23836)",9.74
"PhoP, residues 12 14 15 18 19 ICWRQ (Escherichia coli, UniProt P23836)",16.9
"PhoP, residues 12 14 15 18 19 TQCLL (Escherichia coli, UniProt P23836)",6.53

# Series 3 — target: CCND3, cyclin fold, Cln2 fusion (human); method: yeast growth competition, sequencing; sample: yeast; notes: weak parent motif; reference: not given; reading: higher = stronger binding
# Parent: CDKN1B docking peptide (human); PSACRNLFGPVDH; partner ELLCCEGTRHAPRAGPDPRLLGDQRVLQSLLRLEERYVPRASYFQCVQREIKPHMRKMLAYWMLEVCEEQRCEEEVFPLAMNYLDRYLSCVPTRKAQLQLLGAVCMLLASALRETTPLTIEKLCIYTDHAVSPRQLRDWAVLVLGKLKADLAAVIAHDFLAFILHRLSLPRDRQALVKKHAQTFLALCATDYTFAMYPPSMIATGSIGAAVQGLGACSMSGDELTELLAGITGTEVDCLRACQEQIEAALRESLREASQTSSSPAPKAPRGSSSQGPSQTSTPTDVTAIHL
Variant,normalised enrichment score
C4Q,0.0404
D12S,0.0559
G9I,0.15
F8T,0.128
F8L,0.159
C4A,0.177
A3I,0.113
D12A,0.185
P10H,0.0647
V11R,0.0495
P10T,0.16
P1V,0.0927
R5Q,0.0876
F8K,0.121

# Series 4 — method: protein-binding microarray; molecule type: double-stranded DNA, one strand shown; sample: in vitro; concentration: 2540 nM top; notes: 60-bp whole probe; with: salmon DNA 0.4 mg/ml; reference: random background probes; reading: higher = stronger binding; all sequences stand within: GCCTAGCAC … GTCTTGATTCGCTTGACGCTGCTG
# Target: Interferon regulatory factor 3, full length, phosphomimetic (IRF3, Homo sapiens, UniProt Q14653, residues 1-427, S386D/S396D/S398D/S402D/T404D/S405D)
# UniProt Q14653, sequence (whole entry, unmodified, looked up): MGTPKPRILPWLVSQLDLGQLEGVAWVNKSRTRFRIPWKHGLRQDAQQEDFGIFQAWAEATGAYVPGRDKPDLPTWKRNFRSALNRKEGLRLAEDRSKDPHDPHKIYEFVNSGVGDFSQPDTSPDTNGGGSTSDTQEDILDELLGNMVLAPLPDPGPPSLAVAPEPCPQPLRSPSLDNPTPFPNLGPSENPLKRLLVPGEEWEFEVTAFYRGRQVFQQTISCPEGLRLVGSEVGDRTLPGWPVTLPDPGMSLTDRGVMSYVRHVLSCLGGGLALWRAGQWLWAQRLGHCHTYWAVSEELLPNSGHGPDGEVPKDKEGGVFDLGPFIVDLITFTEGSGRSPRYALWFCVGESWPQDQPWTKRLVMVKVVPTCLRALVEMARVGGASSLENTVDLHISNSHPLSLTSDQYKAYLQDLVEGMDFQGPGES
Sequence,fitted relative affinity [z-score]
GATGAACTGAGTCTCGAGACGTGCTAG,-0.546
TCATCTACAGGGTTTCACACTGTGCTA,1.17
CACTATTTAAGGCCTATGCACGTGCTA,0.494
GACGGGCTCCTTTTCCTGACGTGCTAG,2.56
GACGATCTCAGTTTCGGGACGTGCTAG,3.21
GCATTTTTTTTTTCTACTTCGTGCTAG,1.43
TTAGATATTAGTCTCGATTAGTGCTAG,0.191
TTAGGTTACCTTTCCCTTTAGTGCTAG,7.5
TTAAAACTGAGACTGGATTAGTGCTAG,-0.32
CACACTTTCCCCTTCCTAGTGTGCTAG,3.46
GACGGTATCATTTTCCTGACGTGCTAG,4.51
TTAAATTTCGGGACTGGATTAGTGCTA,1.33
TGAGGTATCCTACTGCTTTAGTGCTAG,2.06
ATAGGTTTCGGTTTCGGTTAGTGCTAG,12.2
AAACCATTTTTTTTCACTATGTGCTAG,1.08
GACGATCTCGGACTGGGGACGTGCTAG,0.075
GACGGTATCGACAATGGGGACGTGCTA,0.33

# Some of these lines once more (series 1):
Sequence,fluorescence intensity
TTGGAACCCATACCTCACGTTTGAAATTGACACCCGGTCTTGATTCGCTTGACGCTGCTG,5960 a.u.
ATAGAAATGGGTAGCCTTGTGACGGTGGATAATTCTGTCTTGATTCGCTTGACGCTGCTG,3860 a.u.
TTAAATTCAAGTTACCTCGTGTTCCTAGTCATTGGCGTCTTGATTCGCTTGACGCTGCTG,10900 a.u.
AGAATGGGCGCTTGTCGCGTGCCAGATCGGGGTTCAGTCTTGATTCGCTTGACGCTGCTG,8200 a.u.
TCACTTTAACCACCATTTCTTTAAGCTAAAGTTTAGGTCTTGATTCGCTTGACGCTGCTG,3620 a.u.
TTGCGGACGGACCATCACGCAAGTTTTTTAACGCGAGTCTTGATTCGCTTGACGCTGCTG,3600 a.u.
TTCGGGTATCTTGTTTATGTGACGCTCTGACCCAGAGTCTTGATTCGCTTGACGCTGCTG,3040 a.u.
